Published values of several laboratories.
Each numbered part is a random draw from the data of one study; scales do not carry over between parts.

Sample 1 — technique: RNA Bind-n-Seq; form: RNA; medium: in vitro; tested at: 1 µM; setting: whole 134-nt RNA, ends assumed; together with: 150 mM KCl; relative to: input library; reading: higher = stronger binding
Target: Ras GTPase-activating protein-binding protein 1, RRM domain (G3BP1, Homo sapiens, UniProt Q13283)
Sequence of UniProt Q13283 (whole entry, looked up): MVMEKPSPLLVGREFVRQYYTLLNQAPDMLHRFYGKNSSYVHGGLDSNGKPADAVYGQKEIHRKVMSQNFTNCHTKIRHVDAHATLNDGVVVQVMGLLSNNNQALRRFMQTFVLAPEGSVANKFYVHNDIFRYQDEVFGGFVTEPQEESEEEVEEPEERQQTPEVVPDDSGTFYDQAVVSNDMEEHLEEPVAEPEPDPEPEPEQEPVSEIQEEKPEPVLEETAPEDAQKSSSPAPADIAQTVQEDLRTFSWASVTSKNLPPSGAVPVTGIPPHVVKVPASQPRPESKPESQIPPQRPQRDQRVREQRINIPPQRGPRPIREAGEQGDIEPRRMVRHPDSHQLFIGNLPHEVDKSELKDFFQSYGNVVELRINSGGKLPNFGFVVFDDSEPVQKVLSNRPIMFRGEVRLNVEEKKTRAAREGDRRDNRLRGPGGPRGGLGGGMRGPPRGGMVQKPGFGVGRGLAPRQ
Shared flanks, not repeated: GGGAGUUCUACAGUCCGACGAUC … UGGAAUUCUCGGGUGUCAAGG
Oligonucleotide | log2 enrichment
CCUGUGCUACACAUCGUAUGUACCGAAUCGGCCCCCCCGGGCCCCCCCGGCCCCCCCGGGAAAGUAUUAUGUUACGCCGUUCGGAUCUGC | -0.499
AGUCCUGUGCUACACAUCGUAUGUACCGAAUCGGGUUUUUGGGAAAAAGGGAAAGGGAAAGUAUUAUGUUACGCCGUUCGGAUCUGCACU | 0.201
CCUGUGCUACACAUCGUAUGUACCGAAUCGGCCCCCCCGGGGCCCCCCCGGCCCCCCCGGGAAAGUAUUAUGUUACGCCGUUCGGAUCUG | -0.622
UGGGAGGUGGAUUUUGUUUAUUUUUUUAGCUCAUUUCCAGGGGUGGGAAUUUUUUUUUAAUAGGUGUCAUGAAUAAAGUUGUUUUUGAAA | 1.53
UCAGAAGGUCUUUUAAGUCUGACCACCCAGCUUGUCAAGGAAAAACUCUCCACCUGUGAAGCAGAGGACAUCGCCACCUAUGAGCAGAAU | 0.0161
UCAAGUCCUGUGCUACACAUCGUAUGUACCGAAUCGGGUUGGGGUUGGGGUUGGGAAAGUAUUAUGUUACGCCGUUCGGAUCUGCACUUC | 0.969
UCCUGUGCUACACAUCGUAUGUACCGAAUCGGGGCCCCCGGGCCCCCGGGGCCCCCGGGGAAAGUAUUAUGUUACGCCGUUCGGAUCUGC | -0.8

Sample 2 — mode: inhibitor; tested at: 20 µM
Target: Replicase polyprotein 1ab, nsp13 helicase (rep, Severe acute respiratory syndrome coronavirus 2, UniProt P0DTD1)
Compound | inhibition
N#Cc1ccc(COC[C@H]2O[C@@H](n3c(NCc4ccc(Cl)c(Cl)c4)nc4c(N)ncnc43)[C@H](O)[C@@H]2O)cc1 | -0.06%
CSc1ccc(C(=O)c2[nH]c(=O)[nH]c2C)cc1 | 6.51%
CC[C@H](CO)Nc1nc(Nc2cccc(-c3ccccn3)c2)c2ncn(C(C)C)c2n1 | 11%
C[C@]12CC[C@H](O)CC1=CC[C@@H]1[C@@H]2CC[C@]2(C)C(n3cnc4ccccc43)=CC[C@@H]12 | -4.36%
CC1=C(C(=O)O)N2C(=O)[C@@H](NC(=O)[C@H](N)c3ccc(O)cc3)[C@H]2SC1 | 5.52%
c1ccc2sc(SN3CCOCC3)nc2c1 | 4.3%
CC(=O)Oc1ccccc1C(=O)Oc1cccc(CO[N+](=O)[O-])c1 | 2.7%
c1ccc(-c2oc3ncnc(NC[C@@H]4CCCO4)c3c2-c2ccccc2)cc1 | -2.13%
OCCn1cc(-c2ccc3c(c2)CC/C3=N\O)c(-c2ccncc2)n1 | 4.17%
C=C1/C(=C\C=C2/CCC[C@]3(C)[C@@H]([C@H](C)OCCC(C)(C)O)CC[C@@H]23)C[C@@H](O)C[C@@H]1O | -0.7%
Nc1nc2c(ncn2COCCO)c(=O)[nH]1 | -3.97%
CC[C@@H](c1ccc(F)c(F)c1)n1c(C(=O)OC)c(-c2ccno2)[nH]c1=S | 0.75%
Cc1cc(Cn2nnc3c(-c4ccco4)nc(N)nc32)ccc1N | 5.13%
O=C1CCCC(=O)C1C(=O)c1ccc(C(F)(F)F)cc1[N+](=O)[O-] | 2.7%
CC(C)(C)n1nc(-c2cccc3ccccc23)c2c(N)ncnc21 | 4.78%
Cc1cc(NC(=O)Nc2ccc(N(C)C)cc2)c2cc(F)cc(F)c2n1 | 8.51%
N=C(N)NCCCC[C@@H]1NC(=O)CCSSC[C@@H](C(N)=O)NC(=O)[C@@H]2CCCN2C(=O)[C@H](Cc2c[nH]c3ccccc23)NC(=O)[C@H](CC(=O)O)NC(=O)CNC1=O | -4.22%
CN1CCN(c2c(F)cc3c(=O)c(C(=O)O)cn(CCF)c3c2F)CC1 | 3.72%
O=S(=O)(c1ccccc1F)N1CCOc2c(N3CCNCC3)cccc21 | 41.8%
Cc1cc2c(cc1C(F)(F)F)N(C(=O)Nc1ccc(Oc3cccnc3C)nc1)CC2 | -3.84%
O=C(Cc1ccc(-c2ccccc2)cc1)Nc1ccccn1 | 4.48%

Sample 3 — technique: RNA Bind-n-Seq; form: RNA; medium: in vitro; tested at: 365 nM; relative to: no-protein control; reading: higher = stronger binding
Target: RNA binding protein fox-1 homolog 2, RRM domain, GST-SBP tag (RBFOX2, Homo sapiens, UniProt O43251-10, residues 100-194)
Setting: natural RNA segment, single round, ends assumed
Shared flanks, not repeated: GGGAGUUCUACAGUCCGACGAUC … UGGAAUUCUCGGGUGCCAA
Residues (chain): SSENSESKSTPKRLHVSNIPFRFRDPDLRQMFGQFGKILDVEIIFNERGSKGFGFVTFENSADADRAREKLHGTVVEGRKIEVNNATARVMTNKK
Oligonucleotide | RBNS enrichment (R)
ACUCUCAGAAAAUGACACUCUUCCCACAUGUGGGGUUUUCUCAGUGUUCUAAGUUUUUAAGAAGUUUUAUCUUGUGUAUUUGCAUCAAACAUUUCUUUAUGUGCUAAAUG | 0.459
UCUUUUGAGGUAAGCUCUGAUUUAGCAUUUAUUCUGAUAAAAUCUAAUACAUCAUGGGAUAUAUAUAAAGCAACUUAAUUCUUGUGGUGUAGUCUUAAUAGUUUUGAAUG | 0.517
CAGAUUGAGGUCUCUGUGGCUUUGGUGACCCUGCUUAAGCAUUCCCACCGUGUCCCUGUUCUGCGCUAGCACUGCCUCCUGCUGCAGCCCCUGACUUGACCUCAGGGCCU | 0.603
UGUCUUCUGUUGUAUUAACUUCUUUCCUUUGUGGUAUCUUGUAUCCUGUUUUAAAAACUAAAUGAAGGGAACCACAUUAGGGCCCAUGCCAGCAUCCCAGUGAAGUUCGU | 0.222
AAAACAAAAAACAGAAAAACAAACAAAAAAAGUUGUAUUAUACAGGAUCAAUAUUUUGCUUUUUAACAAGGAUAUUUAUGUAAUAAGAAACUUUGCCUUAGGUAGGUGUU | 0.804
GCUCUAUCUCUACAACAUUUAAUGAAUUUCUUGUAAACCACUUUGAGAUACAUUGUUUUGGAAAUUCAUACAAUUUUCUCAACAUGGUACUCUACUGGCAGGAUGCAGUU | 0.553
GGAACUAGAUAUGAGCUGUAUAAGAAGCAUAAUUGUGAACAAGUAGAUUGAUUGCCUUCAUAUACAAGUAUGUUUUAGUAUUCCUUAUUUCCUUAUUAUCAGAUGUAUUU | 0.983
AAAAUACAGUGCAAUUAGUGAUGGCUAAAUACACAGUGCUUGGGAUUCAGUCUGUGUAACAUUUUCUUCUGUGUUUUUUACCAGCCAGCUCAAAAGUUAAGAGCAAAUUA | 0.582

Sample 4 — cell line: HEK-293T; effect on: pseudovirus infection; technique: FDA-approved drug library screen; organism: VSV pseudotyped with SARS-CoV-2 spike; tested at: 10 µM; time: 16 h; relative to: vehicle-treated
Compound | GFP-positive cells [%]
CC12CC3CC(C)(C1)CC(N)(C3)C2 | 83.1
Nc1nc(Cl)nc2c1ncn2[C@@H]1O[C@H](CO)[C@@H](O)[C@@H]1F | 97.9
CCCCOc1ccc(OCCCN2CCOCC2)cc1 | 66.6
CC(=O)c1ccc(S(=O)(=O)NC(=O)NC2CCCCC2)cc1 | 83.5
N[C@@H](Cc1cc(I)c(Oc2ccc(O)c(I)c2)c(I)c1)C(=O)O | 110

Sample 5 — organism: SARS-CoV-2; effect on: cytopathic effect; cells: Vero E6; tested at: 10 µM
SMILES | inhibition [%]
O=c1cc(-c2ccc(O)cc2)oc2cc(O)cc(O)c12 | 6.4
O=C1OC2(c3ccccc31)c1cc(Br)c(O)c(Br)c1Oc1c2cc(Br)c(O)c1Br | -51.7
c1cnc2c([O][Ga]([O]c3cccc4cccnc34)[O]c3cccc4cccnc34)cccc2c1 | -4.8
O=c1c(O)cccc2cc(O)c(O)c(O)c12 | 1.2
COc1ccc2[nH]c([S@@+]([O-])Cc3ncc(C)c(OC)c3C)nc2c1 | 0.55
Nc1ccc2cc3ccc(N)cc3nc2c1 | 19.1

Repeated from above (sample 5):
SMILES | inhibition [%]
Nc1ccc2cc3ccc(N)cc3nc2c1 | 19.1
O=c1cc(-c2ccc(O)cc2)oc2cc(O)cc(O)c12 | 6.4
COc1ccc2[nH]c([S@@+]([O-])Cc3ncc(C)c(OC)c3C)nc2c1 | 0.55
O=C1OC2(c3ccccc31)c1cc(Br)c(O)c(Br)c1Oc1c2cc(Br)c(O)c1Br | -51.7
